Results collected from several papers.
Every numbered part comes from another study and shows a few of its results, in no order. Changes are numbered by the printed parent chain.

Block 1 — technique: protein binding microarray; form: double-stranded DNA, one strand shown; matrix: in vitro; concentration: not given; relative to: not given; direction: higher = stronger binding; quantity: E-score
Target: Histone acetyltransferase KAT6A, both winged helices, GST fusion (KAT6A, Homo sapiens, UniProt Q92794, residues 1-181)
Setting: 8-mer, flanks averaged, mean of 2 arrays, mostly near background
Construct (chain): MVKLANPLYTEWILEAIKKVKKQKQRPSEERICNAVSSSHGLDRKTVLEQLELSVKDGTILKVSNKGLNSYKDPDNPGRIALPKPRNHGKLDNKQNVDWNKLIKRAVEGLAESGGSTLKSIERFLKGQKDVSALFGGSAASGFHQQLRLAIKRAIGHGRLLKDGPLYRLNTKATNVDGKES
TAATTTAA: -0.0469
GTACCAAA: -0.089
ATCTGAAC: -0.0296
GCATAGGC: -0.0376
CTGGCTAA: -0.153
CTTAACTC: -0.189
CTCCTGAC: -0.0895
CAAATAAA: -0.0775
CTCTTCTC: -0.0706
AGGACTCG: -0.0713
GGGGGATA: -0.162
ACGGTCTG: 0.0874
CACCGCCG: 0.326
AGCTCTTA: 0.0388
GACGAGCA: -0.113
CTCATCTA: -0.23
GAAGTGAA: -0.0313
CGGTCGAG: 0.101
AATCCTGC: -0.0971
TACTGCCA: -0.181
AAGAGCGT: 0.143
GGGGCTAC: -0.0709
CGAGCCGC: 0.322
AGAGACAG: -0.165
ACTACAGC: -0.129

Block 2 — technique: DHFR PCA, deep sequencing; matrix: yeast; added: (+)-ABA 710 µM; relative to: wild-type fitted maximum; direction: higher = stronger binding; quantity: relative binding score
Target: ABI1, truncated, D143A, DHFR fusion (Arabidopsis thaliana)
Setting: methotrexate growth selection, single substitutions
Starting sequence: PYL1, truncated, DHFR fusion (Arabidopsis thaliana); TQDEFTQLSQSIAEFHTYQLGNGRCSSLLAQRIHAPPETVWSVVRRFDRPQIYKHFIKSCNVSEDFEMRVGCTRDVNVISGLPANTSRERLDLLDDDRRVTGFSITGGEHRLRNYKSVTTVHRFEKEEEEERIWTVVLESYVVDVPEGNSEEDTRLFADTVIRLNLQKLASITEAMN; partner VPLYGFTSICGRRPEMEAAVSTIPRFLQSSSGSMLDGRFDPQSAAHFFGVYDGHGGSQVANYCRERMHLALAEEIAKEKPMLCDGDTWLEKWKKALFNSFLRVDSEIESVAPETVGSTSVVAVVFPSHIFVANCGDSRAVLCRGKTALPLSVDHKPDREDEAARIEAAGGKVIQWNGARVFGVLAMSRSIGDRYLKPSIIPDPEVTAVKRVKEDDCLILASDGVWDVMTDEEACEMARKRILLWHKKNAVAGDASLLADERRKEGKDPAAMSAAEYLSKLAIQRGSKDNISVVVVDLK
T73H: 100%
K116E: 82.7%
I172Y: 96.5%
T154Q: 27.3%
N22H: 103%
N149I: 76.8%
E152N: 92.7%
E174W: 79%
S171R: 102%
V100A: 110%
Y141Q: -15.4%
D3E: 107%
K126Y: 106%
F15M: 90.3%

Block 3 — technique: RNA Bind-n-Seq; form: RNA; matrix: in vitro; concentration: 365 nM; relative to: no-protein control; direction: higher = stronger binding; quantity: RBNS enrichment (R)
Target: RNA binding protein fox-1 homolog 2, RRM domain, GST-SBP tag (RBFOX2, Homo sapiens, UniProt O43251-10, residues 100-194)
Setting: natural RNA segment, single round, ends assumed
Construct (chain): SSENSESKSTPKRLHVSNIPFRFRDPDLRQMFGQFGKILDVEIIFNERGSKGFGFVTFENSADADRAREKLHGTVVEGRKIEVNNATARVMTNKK
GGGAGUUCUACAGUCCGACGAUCUGGAGGAGUGGUCCCUUAAUGAUCCCCCAAAUAUGUGUGUGAUGUGUUUCUAAACUGCUGCUUUGUCUAUUUCCUGCAUUUUAUAGUGAAACUACUAAACAUAAAUAGAUUGGAAUUCUCGGGUGCCAA: 0.511
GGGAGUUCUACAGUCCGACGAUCCUGGGAGUUGAUCGCCUUUCCCAGGUGCUACACCCUUUUCCAGCUGGAUGAGAAUUUGAGUGCUCUGAUCCCUCUACAGAGCUUCCCUGACUCAUUCUGAAGGAGCCCCAUGGAAUUCUCGGGUGCCAA: 1.09
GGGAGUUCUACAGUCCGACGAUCACUUAAAGUUGGCAAGUCUCAUCUUCAGUAAUACGGAUGCCAUGGGAGUGGCCAGGCCAGAUUGAAGGUGAAUAUGGAGCAGUAGCAGAAGCCUCAUUCCAGAACCCAUCUGGAAUUCUCGGGUGCCAA: 0.205
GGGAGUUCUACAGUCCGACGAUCGACAGAACUGGUUCAUGUGUUAUGAGAGAGGAAAAGAGAGGAAAGAACAAAACAAAACAAAACACCACAAACCAAAAACAUCUGGGCUAGCCAGGCAUGAUUGCAAUGUCUGGAAUUCUCGGGUGCCAA: 1.16
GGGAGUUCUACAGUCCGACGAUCACCCCUAGCCACCAGUGUCCCCAAGUGCCCCUCACCCUGCCAGGUGCUCAUUGUAACCAUCGUUCACCAGUGUCCGGCCCCUAGUAGGACCACACAUCACUGCCUGAACUUGGAAUUCUCGGGUGCCAA: 0.493
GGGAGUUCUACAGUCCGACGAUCUGUAGUCUUACAGGGCUGUGCUUGCUGGGCAUGCUUUUACGUCUGUGAGAUAAUUUCGGUUCAGUAAAUUGGCCAAUCUUUUUAUUUUUCUAAGACACAGAAAUGUAUUUUGGAAUUCUCGGGUGCCAA: 1.33
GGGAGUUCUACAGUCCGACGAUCUCCAUAGGAAUAAGGCAUGCCCAGCUAACAGAAAUUUAAGUCCCUCUUCCCCACCUCUCUCAUCUAGACCAAAAAGAAGACUACAAUUUAGAUCCUUGGAGACUUUUCCUUGGAAUUCUCGGGUGCCAA: 1.16
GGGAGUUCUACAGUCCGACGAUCCCCCAAAAUUACAUGUUAAUUUCCAUUUAUAUCAGGGAUUCUAUUUACUUGAAGACUGUGAAGUUGCCAUUUUGUCUCAUUGUUUUCUUUGACAUAACUAGGAUCCAUUAUGGAAUUCUCGGGUGCCAA: 0.557
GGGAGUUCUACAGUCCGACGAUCUUCACAUUUCAUUUUUUCUUAGCACAUGUUGAUAAAAUAGUCACAAGGAGAAAUUACCAGUUACGGUUUAUUAAAUCUCUUUUAAAAUGCAGUCAAGGAAAACUAGCCUUUGGAAUUCUCGGGUGCCAA: 0.53
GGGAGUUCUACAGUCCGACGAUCUGUGCACCCUUUGCUCCCUGCUCUUUCUGCCUCUGGGCUCAUGUAUCUGCGCAGCUCUGGUACCCUCUGUGGGUGCCAUCUCUACCUCUGACACAGACUGCCUGCCUUGAUGGAAUUCUCGGGUGCCAA: 0.946
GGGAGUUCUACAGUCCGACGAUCAGAAAUACAGAUAUAUCUUAAAAAAAAAAAAGCAUUUUGUAUUAAAGAAUUUAAUUCUGAUCUCAAAGCUCCUCUUGGUUUCUCCUUCUCCAUUGAAUCCUUGCUCUAGAUGGAAUUCUCGGGUGCCAA: 1.64
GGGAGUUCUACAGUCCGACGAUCGGUUACCCGAGUGAGCGGCUGCACAGUGCUCACUGAGUCCCCUCAUCUCCAGCAGUCUUGGUGCUGCUGUGCCCCGGGCUCUGGUCUGGCCGGGUGUGAGGGAAGUCAGAUGGAAUUCUCGGGUGCCAA: 0.433

Block 4 — technique: RNA Bind-n-Seq; form: RNA; matrix: in vitro; concentration: 200 nM; setting: whole 134-nt RNA, ends assumed; added: 150 mM KCl; relative to: input library; direction: higher = stronger binding; quantity: log2 enrichment
Target: Fragile X messenger ribonucleoprotein 1, C-terminal low-complexity region (Fmr1, Mus musculus, UniProt P35922)
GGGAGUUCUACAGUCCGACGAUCUGGGAGGUGGAUUUUGUUUAUUUUUUUAGCUCAUUUCCAGGGAUGGGAAUUUUUUUUUAAUAUGUGUCAUGAAUAAAGUUGUUUUUGAAAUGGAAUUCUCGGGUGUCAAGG: 0.0193
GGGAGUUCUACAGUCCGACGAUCAAGUCCUGUGCUACACAUCGUAUGUACCGAAUCGGGCCCGGGGCCCGGGGCCCGGGAAAGUAUUAUGUUACGCCGUUCGGAUCUGCACUUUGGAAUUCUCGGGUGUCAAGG: -0.804
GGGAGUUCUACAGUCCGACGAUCUCCUGUGCUACACAUCGUAUGUACCGAAUCGGGUUUUUGGGGUUUUUGGGGUUUUUGGGGAAAGUAUUAUGUUACGCCGUUCGGAUCUGCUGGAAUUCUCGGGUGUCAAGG: 0.606
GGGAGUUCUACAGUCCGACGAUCUCCUCAAGUCCUGUGCUACACAUCGUAUGUACCGAAUCGGGUGGGGUGGUGGAAAGUAUUAUGUUACGCCGUUCGGAUCUGCACUUCCAGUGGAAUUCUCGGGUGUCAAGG: 0.483
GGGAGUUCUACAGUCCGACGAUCUCCUGUGCUACACAUCGUAUGUACCGAAUCGGGAAAAAAGGAAAAAAGGGAAAAAAGGGGAAAGUAUUAUGUUACGCCGUUCGGAUCUGCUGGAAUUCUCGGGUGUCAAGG: -0.546
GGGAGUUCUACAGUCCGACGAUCUCCUGUGCUACACAUCGUAUGUACCGAAUCGGGCCCCCCGGCCCCCCGGGCCCCCCGGGAAAGUAUUAUGUUACGCCGUUCGGAUCUGCAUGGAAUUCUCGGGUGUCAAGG: -0.345
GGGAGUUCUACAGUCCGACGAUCUCAAGUCCUGUGCUACACAUCGUAUGUACCGAAUCGGAGGAAAAAAAGGAAAGGAAAGUAUUAUGUUACGCCGUUCGGAUCUGCACUUCCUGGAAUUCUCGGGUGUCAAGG: -0.543
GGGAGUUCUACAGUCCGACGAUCCUCAAGUCCUGUGCUACACAUCGUAUGUACCGAAUCGGUUUUUGGAGGAAAGGAAAGUAUUAUGUUACGCCGUUCGGAUCUGCACUUCCAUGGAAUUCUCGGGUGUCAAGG: -0.253
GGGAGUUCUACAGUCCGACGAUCUGGCCCUGGUGGCAUGCGGGGAGGAAGAGGUGGCCUGAUGGAUCGUGGUGGUCCCGGUGGAAUGUUCAGAGGUGGCCGUGGUGGAGACAGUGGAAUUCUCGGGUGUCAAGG: 0.449
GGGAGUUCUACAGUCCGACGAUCUUACACAAACCUGCAGGUGAAGACAGGCCAGCGGACCCUCAUCAACCCCAAGCCCUGUGGCCAGUUUUGCUGCUGUGAAGUGCUGGGCUGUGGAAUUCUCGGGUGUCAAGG: -0.473

Repeated from above (block 1):
CGGTCGAG: 0.101
CTGGCTAA: -0.153
AATCCTGC: -0.0971
CTCATCTA: -0.23
